Assay results from different studies.
Lines come from different studies, so protocols differ. Values joined by “and” are separate records of one study, mostly repeats; a detail may differ. ± marks the error that the study gave.

Structure (SMILES)	tested on	test	test system	conditions	how to read	measurement	value
COc1ncccc1-c1cnn2ccc(N3CCN(C(=O)OC(C)C)CC3)nc12			rat, CCI cold allodynia model, plasma	oral, 1 mg/kg, 240 min		drug concentration	100 nM
C=CCNc1c(O)cc2c(O)c1C[C@@H](C)C[C@H](OC)[C@H](O)[C@@H](C)/C=C(\C)[C@H](OC(N)=O)[C@@H](OC)/C=C\C=C(/C)C(=O)N2			unresectable or metastatic STS, GIST, other	intravenous, 500 mg/m^2		patients with headache TEAE	86%
Clc1ccc(-c2ccccc2)cc1			Sprague-Dawley rat female, serum	inhalation, 35 µg/rat, 24 h		serum total protein	4 ± 0.3 g/dL
Cn1cc(-c2nc(N[C@@H]3CCCC[C@@H]3N)c(F)c3c2C(=O)NC3)cn1		measured: subdural haematoma	patients with relapsed or refractory AML	oral, 60 mg once daily		hemorrhagic adverse events	25%
C[C@H]1C[C@@H](N2C(=N)N[C@](C)(c3cccc(NC(=O)c4cccc(C#N)c4)c3Cl)CC2=O)CCO1			rat	500 mg/kg, every other day		triglycerides change	-36%
C/C(=N\C#N)N(C)Cc1ccc(Cl)nc1			soil	56 days, nominal 0.37		recovery	3.5%
N[C@@H]1c2ccccc2OC12CCN(c1cnc3c(N4CCCc5ncccc54)n[nH]c3n1)CC2			advanced metastatic solid tumour patients	oral, 50 mg once daily		TEAE leading to withdrawal	33.3%
CO[C@H]1C[C@@H]2CC[C@@H](C)[C@@](O)(O2)C(=O)C(=O)N2CCCC[C@H]2C(=O)O[C@H]([C@H](C)C[C@@H]2CC[C@@H](OC(=O)NCCOCCOCCOCCOCCOCCOCCOCCOCCC(=O)N3CCc4cc(Cn5nc(-c6ccc7oc(N)nc7c6)c6c(N)ncnc65)ccc4C3)[C@H](OC)C2)C[C@@H](O)[C@H](C)/C=C(\C)[C@@H](O)[C@@H](OC)C(=O)[C@H](C)C[C@H](C)/C=C/C=C/C=C/1C		phase 1 dose escalation, measured: fatigue	advanced solid tumour patients	intravenous, 12 mg weekly, any grade		dose-reducing adverse events	0%
CCC(C)(C)c1cc(-n2nc3ccccc3n2)c(O)c(C(C)(C)CC)c1			reconstructed human epidermis EpiSkin	sunscreen extract		time to 80% permeation	1 h
O=S(=O)(Nc1ccccc1)c1ccc(NC(=S)Nc2ccccc2)cc1		measured: Ca	female mouse, blood	oral, 5 mg/kg daily, 14 days		blood chemistry level	10.5 mg/dL
C[C@]12CC[C@@H]3c4ccc(O)cc4CC[C@H]3[C@@H]1CCC2=O		ultrafiltration	cow milk whey	2000 nM nominal in whole milk		final permeate concentration	26.4 nM
CN(C)CCc1c[nH]c2ccc(N=Nc3ccccc3)cc12		light irradiation	solution	with: light 530 nm		trans isomer at photostationary state	87%
O=C(Nc1ccccc1)C1CCN(C(=O)Oc2cccnc2)CC1		adverse event reporting	healthy women	oral, 20 mg, 7 days		subjects with cardiac disorders	14.3%
CC(C)=CC1C(C(=O)OC(C#N)c2cccc(Oc3ccccc3)c2)C1(C)C (centres unmarked)		measured: CYP3A4	human, age 1 year			enzyme contribution to clearance	0.67%
O=c1ccc2ncc(=O)n3c2n1C[C@H]3CN1CCC(NCc2cc3c(cn2)OCCC3)CC1			male Sprague Dawley rats, wild-type	intravenous infusion, 125 mg/kg		renal clearance	25.9 ± 11.5 mL/min/kg
CCN1[C@@H](C(=O)NC23CCC(C(=O)O)(CC2)CC3)[C@H](c2cccc(Cl)c2F)[C@]2(C(=O)Nc3cc(Cl)ccc32)C12CCCCC2			patients with advanced solid tumours	oral, 200 mg		Ageusia incidence	0%
CCCC(CCC)NC(=O)c1ccc2c(c1)OCO2			Swiss albino CD-1 mice, male, bone marrow	intraperitoneal, 350 mg/kg, 48 h		micronucleated PCEs	0.1%
O=C(CCc1ccc(CC2CCN(Cc3c[nH]c4ccccc34)CC2)cc1)N1CCCC1	Vero-E6	CellTiter-Glo ATP		72 h, second round 5-point	baseline: DMSO 0%, hyamine -100%, more negative, more toxic	maximum response	-11.7%

Structure (SMILES)	tested on	test	test system	conditions	how to read	measurement	value
COc1ccc2nc3cc(Cl)ccc3c(Nc3cc(CN4CCCC4)c(O)c(CN4CCCC4)c3)c2n1			mouse, blood	oral, 57 mg/kg, tolerability, mean		basophils	0.53%
CC(=O)c1c(C)c2cnc(Nc3ccc(C4CCN(CCS(C)(=O)=O)CC4)cn3)nc2n(C2CCCC2)c1=O			human, plasma	oral, 100 mg twice daily, single dose, monotherapy		CL	1630 mL/min
CC(C)[C@@H]1NC(=O)CNC(=O)[C@H](CC(N)=O)NC(=O)[C@H](CCCNC(=N)N)NC(=O)[C@H](Cc2ccc(O)cc2)NC(=O)[C@H](C(C)C)NC(=O)[C@@H](NC(=O)[C@@H](NC(=O)[C@H](CC(N)=O)NC(=O)[C@H](Cc2c[nH]c3ccccc23)NC(=O)[C@H](C)NC(=O)[C@H](Cc2ccccc2)NC(=O)CN)C(C)C)CSSC[C@@H](C(=O)N[C@@H](Cc2cnc[nH]2)C(=O)N[C@@H](CCCNC(=N)N)C(=O)N[C@@H](CCCNC(=N)N)C(=O)N[C@@H](C)C(=O)N[C@@H](CC(N)=O)C(N)=O)NC(=O)[C@H](C(C)C)NC(=O)[C@H](CCCNC(=N)N)NC1=O		HPLC	mouse liver homogenate 50 mg/mL	8.00 h		peptide remaining	0% and 1.74%
Fc1ccc([C@@H]2CCNC[C@H]2COc2ccc3c(c2)OCO3)cc1		ECG, Fridericia correction	healthy participants	oral, dose not given, -1 h		QTc interval	394 ± 16 ms
C[C@H]1COCCN1c1nc(NCc2cccnc2C(F)(F)F)c2cccnc2n1			conscious rat, plasma	intravenous, 10 mg/kg, 5 min		plasma concentration	36000 ng/mL
C[C@@H]1N=C(c2ccccc2F)c2cc(Br)ccc2-n2cnc(C(=O)O)c21			Swiss Webster mice, blood	oral gavage, 100 mg/kg		Tmax	20 min
CC(C)C[C@H](NC(=O)[C@H](CCCCN)NC(=O)OCC1c2ccccc2-c2ccccc21)C(=O)N[C@H](C(=O)N[C@@H](Cc1ccccc1)C(=O)N[C@@H](Cc1ccccc1)C(=O)N[C@@H](CCCCN)C(=O)NCC(=O)N[C@@H](Cc1ccccc1)C(=O)N[C@@H](C)C(=O)N[C@@H](Cc1c[nH]c2ccccc12)C(=O)N[C@@H](CC(N)=O)C(=O)N[C@H](C(=O)N[C@H]1CSSC[C@@H](C(=O)N[C@@H](Cc2c[nH]cn2)C(=O)N[C@@H](CCCNC(=N)N)C(=O)N[C@@H](CCCNC(=N)N)C(=O)N[C@@H](C)C(=O)N[C@@H](CC(N)=O)C(N)=O)NC(=O)[C@H](C(C)C)NC(=O)[C@H](CCCNC(=N)N)NC(=O)[C@H](C(C)C)NC(=O)CNC(=O)[C@H](CC(N)=O)NC(=O)[C@H](CCCNC(=N)N)NC(=O)[C@H](Cc2ccc(O)cc2)NC(=O)[C@H](C(C)C)NC1=O)C(C)C)C(C)C			mouse mammary gland homogenate 50 mg/mL	8.00 h, 37 °C		peptide remaining	71.3% and 76.1% and 73.2%
C[C@]1(CO)Cc2ncn(-c3ccc(C#N)c(Cl)c3)c2C(=O)O1		measured: abnormal skin odour	human	40 mg multiple doses, fasted		subjects with drug-related TEAE	0%
CCCCCCCCCCCCCCCC(=O)N[C@@H](CCC(=O)NCCCC[C@H](NC(=O)[C@H](CC(=O)O)NC(=O)[C@H](CO)NC(=O)[C@@H](NC(=O)[C@H](Cc1ccccc1)NC(=O)[C@@H](NC(=O)CNC(=O)[C@H](CCC(N)=O)NC(=O)[C@H](CO)NC(=O)[C@@H](N)Cc1c[nH]cn1)[C@@H](C)O)[C@@H](C)O)C(=O)N[C@@H](CO)C(=O)N[C@@H](CCC(=O)O)C(=O)N[C@@H](Cc1ccc(O)cc1)C(=O)N[C@@H](CC(C)C)C(=O)N[C@@H](CC(=O)O)C(=O)N[C@@H](CO)C(=O)N[C@@H](CCC(=O)O)C(=O)N[C@@H](CCCNC(=N)N)C(=O)N[C@@H](C)C(=O)N[C@@H](CCCNC(=N)N)C(=O)N[C@@H](CC(=O)O)C(=O)N[C@@H](Cc1ccccc1)C(=O)N[C@H](C(=O)N[C@@H](C)C(=O)N[C@@H](Cc1c[nH]c2ccccc12)C(=O)N[C@@H](CC(C)C)C(=O)N[C@@H](CCC(=O)O)C(=O)N[C@@H](C)C(=O)NCC(=O)NCC(=O)O)C(C)C)C(=O)O			human, CrCl < 20 mL/min	sc, 100 µg single dose		injection site erythema	0%
CC(C)(C)NCC(O)c1cc(O)cc(O)c1 (centres unmarked)			human	inhaled		lung deposited fraction	0.23
C[C@@H](NC(=O)N1C(=O)[C@H](Cc2ccnc(N)c2)[C@H]1C(=O)O)C1CCCCC1			healthy adult Chinese volunteers	continuous intravenous infusion, 0.6 mg/kg/h, 5-day infusion, CTCAE 5.0 grading		incidence of drug-related AEs	12.5%
Cc1ccc2nc(Cl)c3cc(C(=O)NCCCN4CCC(C)CC4)sc3c2c1	Vero-E6	CellTiter-Glo ATP		72 h, retest 8-point duplicates	baseline: DMSO 0%, hyamine -100%, more negative, more toxic	maximum response	-5.3%
COc1cc2c(Oc3ccc4[nH]c(C)cc4c3F)ccnc2cc1OCC1(N)CC1			paediatric recurrent refractory sarcoma	12 mg		grade 3 Fever	0%
CN1CCN(S(=O)(=O)c2cc([N+](=O)[O-])ccc2N(CCOS(C)(=O)=O)CCOS(C)(=O)=O)CC1			naive NOD/SCID mice, pooled blood	intraperitoneal, 18.8 mg/kg, week 4		sodium	158 mmol/L
Cc1cccc(Cn2nc(C3CC3)c3c(NC(=O)c4cnc5cc(OCCN6CCN(C)CC6)ccn45)cccc32)n1		measured: Diarrhea	human platinum-resistant ovarian cancer	oral, dose not given, all-causality		adverse events incidence	18.2%
CCc1ccc(CC/C=C/c2ccc3c(c2)C(=O)CC3)cc1			Sprague-Dawley rat, male	oral, 450 mg/kg/day, 14 days		Hemoglobin	140 g/L
C[C@]1(O)C[C@@](N)(c2ccc(-c3nc4n(c3-c3ccccc3)COc3ccncc3-4)cc2)C1			human, advanced or metastatic solid tumours	16 mg once daily, phase I dose escalation		patients with Rash TEAE	66.7%

Excerpt of the above:
Structure (SMILES)	tested on	test	test system	conditions	how to read	measurement	value
CC(=O)c1c(C)c2cnc(Nc3ccc(C4CCN(CCS(C)(=O)=O)CC4)cn3)nc2n(C2CCCC2)c1=O			human, plasma	oral, 100 mg twice daily, single dose, monotherapy		CL	1630 mL/min
CC(C)[C@@H]1NC(=O)CNC(=O)[C@H](CC(N)=O)NC(=O)[C@H](CCCNC(=N)N)NC(=O)[C@H](Cc2ccc(O)cc2)NC(=O)[C@H](C(C)C)NC(=O)[C@@H](NC(=O)[C@@H](NC(=O)[C@H](CC(N)=O)NC(=O)[C@H](Cc2c[nH]c3ccccc23)NC(=O)[C@H](C)NC(=O)[C@H](Cc2ccccc2)NC(=O)CN)C(C)C)CSSC[C@@H](C(=O)N[C@@H](Cc2cnc[nH]2)C(=O)N[C@@H](CCCNC(=N)N)C(=O)N[C@@H](CCCNC(=N)N)C(=O)N[C@@H](C)C(=O)N[C@@H](CC(N)=O)C(N)=O)NC(=O)[C@H](C(C)C)NC(=O)[C@H](CCCNC(=N)N)NC1=O		HPLC	mouse liver homogenate 50 mg/mL	8.00 h		peptide remaining	0% and 1.74%
